Assay results of several laboratories.
Each line is one published result; not all experiments were run side by side. Several values in a cell are separate wells, animals, samples, runs or records.
RPS6KA1: Ribosomal protein S6 kinase alpha-1 (RPS6KA1, Homo sapiens, UniProt Q15418)

Cc1cccc(-c2ccc3nc(NC(=O)C4CCOCC4)nn3c2)c1  remaining activity (RPS6KA1; enzyme activity, Dundee kinase panel; 10 µM): 70%
C=CC(=O)N1Cc2nc(-c3cc(-c4cc(Cl)cnc4Cl)c(F)cc3F)n(-c3ccncn3)c2C1  inhibition (RPS6KA1; cell-free assay, inhibitor; 1 µM): 2.9%
Cc1cccc(O[C@H]2CCC[C@@H](C(C)CNCc3ccncc3)C2)c1 (relative stereo)  inhibition (RPS6KA1; enzyme activity, inhibitor; 1 µM): 1%
O=C(Cc1ccc(OCc2ccccc2)cc1)NC1(C(=O)O)CCN(C(=O)c2ccc(-c3cccc(Cl)c3)cc2)CC1  activity vs control (RPS6KA1; enzyme activity, inhibitor; 10 µM): 129%
CNC(=O)C[C@H](Cc1ccc(C#N)cc1)NC(=O)c1cc(-c2ccc(CN[C@H](C)c3ccc(C)cc3)o2)ccc1Cl  activity vs control (RPS6KA1; enzyme activity, inhibitor; 1 µM): 91%
COc1ccc(O)cc1-c1c[nH]c2ncc(-c3cncc(C(=O)N(C)C)c3)cc12  inhibition (RPS6KA1; binding, competition with immobilised ligand; 0.2 µM): 8.15%
Cc1nc2c(F)cc(-c3nc(Nc4ccc(CNC(=O)CCCCCCC(=O)NO)cc4)ncc3F)cc2n1C(C)C  inhibition (RPS6KA1; enzyme activity, inhibitor; 1 µM): 66%
Nc1ncc(-c2cc(-c3cnn(CC(F)(F)F)c3)ncc2F)nc1C(=O)NC1CNCC(F)C1 (centres unmarked)  remaining activity (RPS6KA1; enzyme activity; 1 µM; baseline: DMSO control): 62.1%
Cc1cccc(-c2ccc3nc(NC(=O)C4CCCO4)nn3c2)c1 (centres unmarked)  remaining activity (RPS6KA1; enzyme activity, Dundee kinase panel; 10 µM): 62%
COCC12C(=O)NC3C4(C(OC)CC1O)C1CC5(O)C(OC)C(O)C(OC(C)=O)(C1C5OC(=O)c1ccccc1)C3(O)C(OC)C24 (centres unmarked)  remaining activity (RPS6KA1; kinase activity, inhibitor, ProQinase kinase profiling; 25 µM; baseline: control): 73% and 89%
NC(=O)[C@@H](O)C[C@H]1CCc2sc3ncnc(O[C@H]4CC[C@H](N5CCOCC5)CC4)c3c21  inhibition (RPS6KA1; enzyme activity, inhibitor; 10 µM): 33%
c1ccc2c(Nc3cc(C4CCC4)[nH]n3)nc(Nc3ccc4nc[nH]c4c3)nc2c1  remaining activity (RPS6KA1; enzyme activity, inhibitor; 0.25 µM): 5%
CS(=O)(=O)Nc1cccc(-c2csc3cnc(Nc4ccc(N5CCN(CCCCCOc6cccc7c6C(=O)N(C6CCC(=O)NC6=O)C7=O)CC5)cc4)nc23)c1 (centres unmarked)  inhibition (Ribosomal protein S6 kinase alpha-1, kinase domain 1 (RPS6KA1, Homo sapiens, UniProt Q15418); probe labelling, inhibitor, KiNativ chemoproteomics; MOLT-4; 1 µM): -17.2%
C=CC(=O)Nc1cccc(-c2cnc3[nH]cc(C(=O)NC(C)(C)C)c3n2)c1  inhibition (RPS6KA1; kinase activity; 0.1 µM): 10% and 9%
C=CC(=O)Nc1cc(-c2nn(C3CCN(CCNC(=O)[C@H](C)CCC45CC6CC(CC(C6)C4)C5)CC3)c3ncnc(N)c23)ccc1Oc1ccccc1  inhibition (Ribosomal protein S6 kinase alpha-1, kinase domain 2 (RPS6KA1, Homo sapiens, UniProt Q15418); inhibitor, KiNativ profiling; biochemical; 2 µM): 8.7%
COc1ccc(NC(=O)Nc2ccc3c(c2)C(=O)N(C(C)CO)CC(C)C(CN(C)Cc2ccc4c(c2)OCO4)O3)cc1 (centres unmarked)  remaining activity (RPS6KA1; kinase activity, KinaseProfiler; 0.03 µM, species human; baseline: control): 92%
CN1CC[C@@H](COc2cnc(C#N)cc2-c2ccn3nc(NC(=O)C4CC4)cc3c2)C1  inhibition (RPS6KA1; enzyme activity, inhibitor; 1 µM): 6%

Excerpt of the above:
C=CC(=O)Nc1cc(-c2nn(C3CCN(CCNC(=O)[C@H](C)CCC45CC6CC(CC(C6)C4)C5)CC3)c3ncnc(N)c23)ccc1Oc1ccccc1  inhibition (Ribosomal protein S6 kinase alpha-1, kinase domain 2 (RPS6KA1, Homo sapiens, UniProt Q15418); inhibitor, KiNativ profiling; biochemical; 2 µM): 8.7%
COc1ccc(NC(=O)Nc2ccc3c(c2)C(=O)N(C(C)CO)CC(C)C(CN(C)Cc2ccc4c(c2)OCO4)O3)cc1 (centres unmarked)  remaining activity (RPS6KA1; kinase activity, KinaseProfiler; 0.03 µM, species human; baseline: control): 92%
CN1CC[C@@H](COc2cnc(C#N)cc2-c2ccn3nc(NC(=O)C4CC4)cc3c2)C1  inhibition (RPS6KA1; enzyme activity, inhibitor; 1 µM): 6%
